Measured values pooled from the literature.
Protocols differ between the studies behind these lines. Numbers after ± are the reported error.
14-3-3 protein epsilon: 14-3-3 protein epsilon (Homo sapiens, UniProt P62258)
Chain of UniProt P62258 (whole entry, looked up): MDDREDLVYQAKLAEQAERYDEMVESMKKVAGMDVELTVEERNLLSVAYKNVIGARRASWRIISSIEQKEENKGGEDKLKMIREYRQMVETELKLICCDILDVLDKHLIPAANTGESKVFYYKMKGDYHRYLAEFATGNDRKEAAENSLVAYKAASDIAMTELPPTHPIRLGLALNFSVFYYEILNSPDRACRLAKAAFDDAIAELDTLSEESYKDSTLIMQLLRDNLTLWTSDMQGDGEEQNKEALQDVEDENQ
Chain of UniProt O75116 (whole entry, looked up): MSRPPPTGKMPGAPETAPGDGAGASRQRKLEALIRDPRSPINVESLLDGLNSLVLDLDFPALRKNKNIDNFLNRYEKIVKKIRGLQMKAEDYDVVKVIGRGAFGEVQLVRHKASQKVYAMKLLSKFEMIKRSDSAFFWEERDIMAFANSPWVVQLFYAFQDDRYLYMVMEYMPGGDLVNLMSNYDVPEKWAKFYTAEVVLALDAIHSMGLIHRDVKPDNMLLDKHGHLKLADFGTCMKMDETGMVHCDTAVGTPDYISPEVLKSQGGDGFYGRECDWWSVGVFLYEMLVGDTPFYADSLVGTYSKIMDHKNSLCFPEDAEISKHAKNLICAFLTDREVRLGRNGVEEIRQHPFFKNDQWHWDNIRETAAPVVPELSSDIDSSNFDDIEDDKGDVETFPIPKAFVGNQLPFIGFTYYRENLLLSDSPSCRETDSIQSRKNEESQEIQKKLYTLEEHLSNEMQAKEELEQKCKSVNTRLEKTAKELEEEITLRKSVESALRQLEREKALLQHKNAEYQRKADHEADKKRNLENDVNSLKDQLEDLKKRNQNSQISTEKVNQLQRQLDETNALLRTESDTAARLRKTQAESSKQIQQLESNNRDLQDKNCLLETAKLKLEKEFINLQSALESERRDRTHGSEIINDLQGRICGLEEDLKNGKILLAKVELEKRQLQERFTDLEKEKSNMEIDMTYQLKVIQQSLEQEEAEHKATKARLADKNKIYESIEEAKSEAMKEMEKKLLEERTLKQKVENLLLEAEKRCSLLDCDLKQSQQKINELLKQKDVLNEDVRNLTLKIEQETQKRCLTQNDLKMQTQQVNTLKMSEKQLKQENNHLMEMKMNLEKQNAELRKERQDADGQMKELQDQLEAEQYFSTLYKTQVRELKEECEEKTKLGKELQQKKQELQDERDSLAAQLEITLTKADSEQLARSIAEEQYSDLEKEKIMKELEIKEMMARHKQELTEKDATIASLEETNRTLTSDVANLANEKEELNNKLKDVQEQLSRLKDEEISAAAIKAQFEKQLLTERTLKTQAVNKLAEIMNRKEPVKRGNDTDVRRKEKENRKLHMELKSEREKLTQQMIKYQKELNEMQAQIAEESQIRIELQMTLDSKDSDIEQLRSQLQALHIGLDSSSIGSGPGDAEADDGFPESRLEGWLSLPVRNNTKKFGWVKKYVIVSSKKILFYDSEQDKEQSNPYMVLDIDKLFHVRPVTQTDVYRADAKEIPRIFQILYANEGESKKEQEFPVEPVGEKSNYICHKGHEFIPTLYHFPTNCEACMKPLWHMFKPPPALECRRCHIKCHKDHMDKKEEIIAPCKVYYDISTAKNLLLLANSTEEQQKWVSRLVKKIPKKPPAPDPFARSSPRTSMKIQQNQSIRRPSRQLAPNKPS
Chain of UniProt P50391 (whole entry, looked up): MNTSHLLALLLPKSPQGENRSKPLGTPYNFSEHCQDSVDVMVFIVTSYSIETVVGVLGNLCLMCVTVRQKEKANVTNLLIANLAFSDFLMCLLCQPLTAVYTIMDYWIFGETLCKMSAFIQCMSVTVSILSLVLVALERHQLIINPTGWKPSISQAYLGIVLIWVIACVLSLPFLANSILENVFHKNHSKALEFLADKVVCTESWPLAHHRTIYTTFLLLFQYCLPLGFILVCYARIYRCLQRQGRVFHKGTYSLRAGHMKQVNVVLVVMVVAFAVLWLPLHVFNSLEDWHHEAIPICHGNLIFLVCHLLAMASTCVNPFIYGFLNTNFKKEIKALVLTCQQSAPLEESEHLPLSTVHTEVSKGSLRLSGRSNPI
Chain of UniProt P41143 (whole entry, unmodified, looked up): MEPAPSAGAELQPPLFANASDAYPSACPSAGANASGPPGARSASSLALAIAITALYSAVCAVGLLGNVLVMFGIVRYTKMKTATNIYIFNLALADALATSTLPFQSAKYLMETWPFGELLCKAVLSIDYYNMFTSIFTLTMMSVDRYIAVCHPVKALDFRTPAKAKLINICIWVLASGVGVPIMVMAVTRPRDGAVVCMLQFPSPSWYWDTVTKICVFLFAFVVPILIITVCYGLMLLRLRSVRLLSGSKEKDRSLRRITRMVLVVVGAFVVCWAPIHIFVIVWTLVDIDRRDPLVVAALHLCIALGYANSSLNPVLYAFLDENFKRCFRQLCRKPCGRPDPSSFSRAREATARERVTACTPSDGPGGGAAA
Chain of UniProt Q9UKP6 (whole entry, unmodified, looked up): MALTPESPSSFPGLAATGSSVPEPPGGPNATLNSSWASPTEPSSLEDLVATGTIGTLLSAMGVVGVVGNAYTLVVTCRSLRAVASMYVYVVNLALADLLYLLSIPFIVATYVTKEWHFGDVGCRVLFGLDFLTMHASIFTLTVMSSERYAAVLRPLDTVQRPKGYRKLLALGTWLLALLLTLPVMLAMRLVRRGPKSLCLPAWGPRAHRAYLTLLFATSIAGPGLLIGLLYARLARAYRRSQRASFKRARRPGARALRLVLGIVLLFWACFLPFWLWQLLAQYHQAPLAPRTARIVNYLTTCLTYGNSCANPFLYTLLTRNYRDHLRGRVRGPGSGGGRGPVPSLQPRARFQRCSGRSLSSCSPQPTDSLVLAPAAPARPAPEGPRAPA
Chain of UniProt P25021 (whole entry, looked up): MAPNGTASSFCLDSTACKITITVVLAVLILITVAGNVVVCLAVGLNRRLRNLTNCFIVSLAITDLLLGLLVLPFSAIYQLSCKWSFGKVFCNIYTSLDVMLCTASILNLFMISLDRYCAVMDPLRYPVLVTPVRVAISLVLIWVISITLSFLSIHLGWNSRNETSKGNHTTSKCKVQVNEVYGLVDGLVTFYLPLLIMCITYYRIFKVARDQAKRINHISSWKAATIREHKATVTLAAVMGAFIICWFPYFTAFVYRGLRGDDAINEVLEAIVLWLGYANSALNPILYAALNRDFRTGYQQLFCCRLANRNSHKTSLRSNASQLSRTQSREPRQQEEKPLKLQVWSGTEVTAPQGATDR

| SMILES | target | test | system | setting | quantity | result |
| --- | --- | --- | --- | --- | --- | --- |
| CC(=O)N[C@@H](CCCNC(=N)N)C(=O)N[C@H](C(=O)N[C@@H](CCCCN)C(=O)N[C@@H](CO)C(=O)N[C@@H](CCCNC(=N)N)C(=O)N[C@H](C(=O)N[C@@H](Cc1c[nH]c2ccccc12)C(=O)N[C@@H](C)C(=O)N[C@@H](C)C(N)=O)[C@@H](C)OP(=O)(O)O)[C@@H](C)O | 14-3-3 protein epsilon | surface plasmon resonance | – | 298 K | binding free energy | -9.71 ± 0.08 kcal/mol |
| COc1cc2c(cc1O)C(CCc1ccc(Cl)cc1)N(C)CC2 (stereo not drawn) | HRH2 (Homo sapiens, UniProt P25021) | cell-free assay, radioligand | – | – | Ki | 1000 nM |
| CC(C)[C@H](NC(=O)[C@@H]1CSSC(C)(C)[C@H](NC(=O)[C@@H](N)CC(=O)O)C(=O)N[C@@H](Cc2ccccc2)C(=O)N[C@@H](Cc2c[nH]c3ccccc23)C(=O)N[C@@H](CCCCN)C(=O)N[C@@H](Cc2ccc(O)cc2)C(=O)N1)C(=O)O | UTS2R (Homo sapiens, UniProt Q9UKP6, T301A) | IP1 accumulation, agonist, HTRF | HEK293T | 1 h, 37 °C, T301A mutant, 7.39 | EC50 | 0.631 nM |
| Cc1ccc(C)c(OCCn2cc(C(=O)O)c3ccccc32)c1 | Ras-related protein Rab-7a (Canis lupus familiaris, UniProt P18067) | – | – | – | EC50 | 77.6 nM |
| O=C(N[C@@H]1c2ccccc2C[C@H]1N1CCCC1)c1ccc(-c2ccnc3[nH]ccc23)nc1 | ROCK2 (Homo sapiens, UniProt O75116) | binding, competition with immobilised ligand | – | – | Kd | 5 nM |
| CC(=O)N[C@@H](CCCNC(=N)N)C(=O)N[C@@H](Cc1ccc(O)cc1)C(=O)N[C@@H](CCCNC(=N)NC(=O)NCCCCN)C(=O)N[C@H](CC(C)C)C(=O)N[C@@H](CCCNC(=N)N)C(=O)N[C@@H](Cc1ccc(O)cc1)C(N)=O | NPY4R (Homo sapiens, UniProt P50391) | calcium signal, antagonist | – | – | Kb | 531 nM |
| Cc1cc(O)cc(C)c1C[C@H](N)C(=O)N[C@H](CCCNC(=N)N)C(=O)N[C@@H](Cc1ccccc1)C(=O)N(C)CC(=O)N(C)Cc1cc(C(F)(F)F)cc(C(F)(F)F)c1 | OPRD1 (Homo sapiens, UniProt P41143, I304A) | – | – | – | Ki | 9.48 ± 2.17 nM |
| CC(=O)N[C@@H](CCCNC(=N)N)C(=O)N[C@H](C(=O)N[C@@H](CCCCN)C(=O)N[C@@H](CO)C(=O)N[C@@H](CCCNC(=N)N)C(=O)N[C@H](C(=O)N[C@@H](Cc1c[nH]c2ccccc12)C(=O)N[C@@H](C)C(=O)N1Cc2ccccc2C[C@H]1C(N)=O)[C@@H](C)OP(=O)(O)O)[C@@H](C)O | 14-3-3 protein epsilon | surface plasmon resonance | – | 298 K | binding free energy | -10.23 ± 0.02 kcal/mol |
| COC1C2(O)C(=O)N3C=CC(C)(C)c4[nH]c5ccccc5c4C=C3C(=O)N2C23C(C)C(C)(C)N2c2ccccc2C13O (stereo not drawn) | uncharacterized protein (Ixodes scapularis, UniProt A0A0N9E2I2) | ion current, positive allosteric modulator | – | 1 min pre-application, with: L-glutamate 100 µM | EC50 | 1120 nM |

For quick reference, copied from above:
| SMILES | target | test | system | setting | quantity | result |
| --- | --- | --- | --- | --- | --- | --- |
| O=C(N[C@@H]1c2ccccc2C[C@H]1N1CCCC1)c1ccc(-c2ccnc3[nH]ccc23)nc1 | ROCK2 (Homo sapiens, UniProt O75116) | binding, competition with immobilised ligand | – | – | Kd | 5 nM |
